Assay results from different studies.
JAK2: Tyrosine-protein kinase JAK2 (JAK2, Homo sapiens, UniProt O60674)
Sequence of UniProt O60674 (whole entry, looked up): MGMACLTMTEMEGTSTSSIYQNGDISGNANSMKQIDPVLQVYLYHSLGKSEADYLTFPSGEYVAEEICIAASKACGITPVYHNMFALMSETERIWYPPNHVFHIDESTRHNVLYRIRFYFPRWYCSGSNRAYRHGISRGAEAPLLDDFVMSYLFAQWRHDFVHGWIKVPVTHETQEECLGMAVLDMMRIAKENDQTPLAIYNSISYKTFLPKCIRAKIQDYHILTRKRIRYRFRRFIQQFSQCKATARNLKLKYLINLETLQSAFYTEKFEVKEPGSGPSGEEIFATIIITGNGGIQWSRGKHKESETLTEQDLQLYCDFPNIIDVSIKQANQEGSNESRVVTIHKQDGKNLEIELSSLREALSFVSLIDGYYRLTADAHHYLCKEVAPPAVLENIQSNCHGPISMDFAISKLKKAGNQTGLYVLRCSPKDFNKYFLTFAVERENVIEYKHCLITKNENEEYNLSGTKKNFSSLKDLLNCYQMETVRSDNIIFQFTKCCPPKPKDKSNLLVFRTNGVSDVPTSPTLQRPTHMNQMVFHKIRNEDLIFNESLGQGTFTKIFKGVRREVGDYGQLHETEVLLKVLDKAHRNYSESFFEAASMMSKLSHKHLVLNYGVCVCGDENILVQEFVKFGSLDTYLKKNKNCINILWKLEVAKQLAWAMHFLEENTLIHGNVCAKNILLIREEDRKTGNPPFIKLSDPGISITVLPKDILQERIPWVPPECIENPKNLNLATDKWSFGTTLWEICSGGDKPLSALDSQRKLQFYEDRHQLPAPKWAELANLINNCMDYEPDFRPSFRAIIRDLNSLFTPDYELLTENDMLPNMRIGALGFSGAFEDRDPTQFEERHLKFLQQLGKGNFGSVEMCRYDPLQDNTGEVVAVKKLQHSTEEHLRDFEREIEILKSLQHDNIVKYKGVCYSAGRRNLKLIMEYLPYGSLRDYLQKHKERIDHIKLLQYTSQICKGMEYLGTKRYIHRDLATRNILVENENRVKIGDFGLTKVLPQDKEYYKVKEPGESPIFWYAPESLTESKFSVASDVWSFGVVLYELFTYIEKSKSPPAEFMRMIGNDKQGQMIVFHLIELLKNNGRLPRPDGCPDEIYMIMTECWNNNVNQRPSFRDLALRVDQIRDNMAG
JAK2 JH1: Tyrosine-protein kinase JAK2, JH1 (JAK2, Homo sapiens, UniProt O60674)

The remaining activity of O=C1NC(=O)c2c1c1cc(F)c[n+]3c1c1c2c2cc(O)ccc2[n]1[Ru-4]312([N]=C=S)[S+]3CC[S+]1CC[S+]2CC3 (stereo not drawn) is reported as 71% (JAK2; enzyme activity; 100 nM, human enzyme, added: 10 µM ATP; baseline: untreated).
CN(/N=C/c1ccccc1C(=O)O)c1nc(-c2ccccc2Cl)cs1 has an inhibition of 0.28% (JAK2; enzyme activity, inhibitor; 1 µM).
The inhibition of O=C(CN1CN(c2ccccc2)C2(CCN(C(=O)c3cnc4[nH]ncc4c3)CC2)C1=O)NCC(F)(F)F is reported as under 50% (JAK2; inhibitor; concentration not given).
The inhibition of CS(C)(=O)=Nc1ccc(-c2ccc(-c3nc4cc(O[C@@H]5CO[C@H]6[C@@H]5OC[C@H]6O)[nH]c4cc3F)cc2)cc1 is reported as 18% (JAK2; enzyme activity, inhibitor; 10 µM).
For CC(C)[C@H]1NC(=O)C[C@H]2/C=C/CCSSC[C@@H](NC1=O)C(=O)N[C@H](Cc1cccc3ccccc13)C(=O)NCC(=O)O2, the inhibition was -5.7% (JAK2; enzyme activity, inhibitor; 10 µM).
O=C(N[C@@H]1c2ccccc2C[C@H]1N1CCCC1)c1ccc(-c2ccnc3[nH]ccc23)nc1 has a remaining binding of 2.1% (JAK2 JH1; binding, competition with immobilised ligand; 3 µM).
C[C@H](NCc1ccc(-c2ccc(C(F)(F)F)cc2)cc1)C(N)=O gave an inhibition of 28% (JAK2 JH1; cell-free assay, competition with immobilised ligand; 1 µM).
CCOC(=O)[C@@H]1Cc2c(cc([N+](=O)[O-])cc2[N+](=O)[O-])[C@H](O)[C@]12C(=O)Nc1ccc(Br)cc12 has a remaining binding of 11% (JAK2; KINOMEscan; 100 nM; baseline: DMSO control).
The remaining binding of Nc1ccc(/C=C/C(=O)N2CCc3c(oc4c(-c5ccc(F)cc5)cc(-c5ccc(C(=O)N6CCC(F)(F)CC6)cn5)cc34)C2)cn1 is reported as 85% (JAK2 JH1; binding, competition with immobilised ligand; 1 µM).

For quick reference, copied from above:
C[C@H](NCc1ccc(-c2ccc(C(F)(F)F)cc2)cc1)C(N)=O gave an inhibition of 28% (JAK2 JH1; cell-free assay, competition with immobilised ligand; 1 µM).
